Experimental data from different studies.
Parts stem from different laboratories: compare values within a part only. Substitutions count along the parent as printed.
Chain of UniProt Q9C5X0 (whole entry, looked up): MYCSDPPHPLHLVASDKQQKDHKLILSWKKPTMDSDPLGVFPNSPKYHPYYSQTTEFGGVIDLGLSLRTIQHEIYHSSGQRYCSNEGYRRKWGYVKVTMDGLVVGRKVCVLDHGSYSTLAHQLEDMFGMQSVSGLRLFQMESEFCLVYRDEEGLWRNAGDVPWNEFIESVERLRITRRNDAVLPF
Chain of UniProt Q9C5W9 (whole entry, looked up): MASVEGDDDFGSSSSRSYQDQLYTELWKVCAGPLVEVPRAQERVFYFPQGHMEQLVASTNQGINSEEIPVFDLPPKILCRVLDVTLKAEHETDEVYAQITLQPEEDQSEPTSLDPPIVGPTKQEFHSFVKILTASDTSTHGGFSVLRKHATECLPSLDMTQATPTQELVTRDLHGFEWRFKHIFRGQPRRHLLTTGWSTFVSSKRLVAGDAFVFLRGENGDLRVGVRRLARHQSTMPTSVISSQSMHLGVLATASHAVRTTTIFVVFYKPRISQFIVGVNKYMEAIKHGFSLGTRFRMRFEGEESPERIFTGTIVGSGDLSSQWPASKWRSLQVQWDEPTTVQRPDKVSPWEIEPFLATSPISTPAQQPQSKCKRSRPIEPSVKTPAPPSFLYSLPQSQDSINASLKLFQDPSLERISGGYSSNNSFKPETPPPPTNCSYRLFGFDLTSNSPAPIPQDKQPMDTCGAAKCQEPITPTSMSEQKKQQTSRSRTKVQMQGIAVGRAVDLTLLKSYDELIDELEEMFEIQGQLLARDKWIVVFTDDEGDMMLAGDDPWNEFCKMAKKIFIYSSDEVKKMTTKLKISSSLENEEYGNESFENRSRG
Chain of UniProt P93024 (whole entry, looked up): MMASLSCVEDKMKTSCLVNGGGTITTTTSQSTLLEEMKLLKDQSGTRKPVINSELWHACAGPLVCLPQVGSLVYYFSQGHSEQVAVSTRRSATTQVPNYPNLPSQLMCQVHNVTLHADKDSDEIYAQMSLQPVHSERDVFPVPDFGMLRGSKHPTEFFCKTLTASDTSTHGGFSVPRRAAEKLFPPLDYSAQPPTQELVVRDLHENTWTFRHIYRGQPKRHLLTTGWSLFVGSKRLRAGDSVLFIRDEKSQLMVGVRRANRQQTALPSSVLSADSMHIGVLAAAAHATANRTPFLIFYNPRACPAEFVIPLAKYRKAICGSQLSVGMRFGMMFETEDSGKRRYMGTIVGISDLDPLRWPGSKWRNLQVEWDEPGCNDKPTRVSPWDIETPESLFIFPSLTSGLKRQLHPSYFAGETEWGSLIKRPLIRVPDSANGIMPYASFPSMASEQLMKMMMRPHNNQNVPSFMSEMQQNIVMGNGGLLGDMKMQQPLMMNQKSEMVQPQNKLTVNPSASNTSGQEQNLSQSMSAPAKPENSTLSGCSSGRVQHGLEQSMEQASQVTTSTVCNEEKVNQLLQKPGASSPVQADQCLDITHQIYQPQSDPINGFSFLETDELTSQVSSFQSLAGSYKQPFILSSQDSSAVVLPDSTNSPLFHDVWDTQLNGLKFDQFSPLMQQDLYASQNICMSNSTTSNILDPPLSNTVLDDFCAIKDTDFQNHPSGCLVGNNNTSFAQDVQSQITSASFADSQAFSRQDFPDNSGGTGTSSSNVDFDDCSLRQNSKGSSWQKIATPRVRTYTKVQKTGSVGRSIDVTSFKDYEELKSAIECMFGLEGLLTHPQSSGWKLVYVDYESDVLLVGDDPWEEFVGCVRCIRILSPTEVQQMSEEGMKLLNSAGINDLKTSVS

Set 1
Target: Histone acetyltransferase KAT6A, winged helix 2, GST fusion (KAT6A, Homo sapiens, UniProt Q92794, residues 85-181)
Method: protein binding microarray
Molecule type: double-stranded DNA, one strand shown
Medium: in vitro
Tested at: not given
Notes: 8-mer, flanks averaged, mean of 2 arrays, mostly near background
Relative to: not given
Reading: higher = stronger binding
Endpoint: E-score
Target sequence (chain): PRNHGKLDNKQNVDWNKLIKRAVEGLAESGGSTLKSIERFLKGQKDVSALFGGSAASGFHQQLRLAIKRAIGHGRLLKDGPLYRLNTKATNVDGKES
AAGGCGCA: 0.0902
AAGTACTT: -0.229
CAATTGTC: -0.189
CAGTCCAA: -0.152
GAGCATAC: 0.057
ATCGCGCG: 0.201
AAGATCGA: 0.0733
ACGCGCCT: -0.0358
CCTTTTCC: -0.0318
CACTGCCG: 0.266
CCTATACA: -0.196
CTAATATA: -0.138
GGAGTCAC: -0.126
AGGAACGC: 0.073
AATGGCCG: -0.0152
GAAGAACC: 0.014

Set 2
Target: PABPC1L2, full length, GST fusion (mouse, UniProt A0ABA7IW68)
Method: RNAcompete
Molecule type: RNA
Medium: in vitro
Tested at: 20 nM
Notes: 7-mer, probes averaged, single round
Relative to: mean of 7-mers
Reading: higher = stronger binding
Endpoint: 7-mer Z-score
Construct (chain): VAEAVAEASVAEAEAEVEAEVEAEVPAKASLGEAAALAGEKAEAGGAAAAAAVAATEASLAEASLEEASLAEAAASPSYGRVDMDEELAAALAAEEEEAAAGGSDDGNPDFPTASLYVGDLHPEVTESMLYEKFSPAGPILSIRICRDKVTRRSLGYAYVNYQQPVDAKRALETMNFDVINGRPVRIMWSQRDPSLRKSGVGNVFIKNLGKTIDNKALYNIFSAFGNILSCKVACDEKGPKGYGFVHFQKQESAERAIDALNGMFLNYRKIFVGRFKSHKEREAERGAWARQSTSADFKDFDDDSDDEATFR
GCUGCUG: -0.0591
GCUAUGG: -0.0246
UCUAGUG: -0.329
GCUGGCC: -0.162
UCCGGUA: -0.0772
UGGUAAU: -0.135
GCCUAGG: -0.193
CGUAGGU: -0.179
GAUUAGC: -0.106
CUCUAUU: -0.338
CCCCCCA: -0.421
CGUUUUA: -0.42
CAAUCGC: -0.188
GGCAGAU: 0.207
UCUGGUC: -0.278
ACUGGAG: 0.0714
GGGUGAG: -0.0536
AACUAGG: 0.269
CCUGCCU: -0.418
AGCGGAA: 0.508
GUAGCAG: -0.193
UCAAAUC: -0.179
CGCUAUU: -0.429
CUCUCGC: -0.436
GUUCCGG: -0.32

Set 3
Molecule: B1 (IAA19)
Method: two-hybrid
Reading: higher = firmer interaction
Endpoint: positive tests
B1: IAA19 (Arabidopsis thaliana, UniProt O24409); chain MEKEGLGLEITELRLGLPGRDVAEKMMKKRAFTEMNMTSSGSNSDQCESGVVSSGGDAEKVNDSPAAKSQVVGWPPVCSYRKKNSCKEASTTKVGLGYVKVSMDGVPYLRKMDLGSSQGYDDLAFALDKLFGFRGIGVALKDGDNCEYVTIYEDKDGDWMLAGDVPWGMFLESCKRLRIMKRSDATGFGLQPRGVDE
ARF18 482-602 (Arabidopsis thaliana, UniProt Q9C5W9); relative to: out of 2 tests: 0
IAA34 (Arabidopsis thaliana, UniProt Q9C5X0); relative to: out of 4 tests: 4
ARF5 788-902 (Arabidopsis thaliana, UniProt P93024); relative to: out of 4 tests: 4

Set 4
Target: ABI1, truncated, D143A, DHFR fusion (Arabidopsis thaliana)
Method: DHFR PCA, deep sequencing
Medium: yeast
Notes: methotrexate growth selection, single substitutions
Added: (+)-ABA 0.0091 µM
Relative to: wild-type fitted maximum
Reading: higher = stronger binding
Endpoint: relative binding score
Starting sequence: PYL1, truncated, DHFR fusion (Arabidopsis thaliana); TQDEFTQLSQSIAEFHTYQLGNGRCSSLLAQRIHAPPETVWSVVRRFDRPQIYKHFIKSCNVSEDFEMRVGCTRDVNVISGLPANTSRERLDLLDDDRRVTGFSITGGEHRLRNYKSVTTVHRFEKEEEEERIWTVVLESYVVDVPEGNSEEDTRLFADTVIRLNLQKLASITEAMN; partner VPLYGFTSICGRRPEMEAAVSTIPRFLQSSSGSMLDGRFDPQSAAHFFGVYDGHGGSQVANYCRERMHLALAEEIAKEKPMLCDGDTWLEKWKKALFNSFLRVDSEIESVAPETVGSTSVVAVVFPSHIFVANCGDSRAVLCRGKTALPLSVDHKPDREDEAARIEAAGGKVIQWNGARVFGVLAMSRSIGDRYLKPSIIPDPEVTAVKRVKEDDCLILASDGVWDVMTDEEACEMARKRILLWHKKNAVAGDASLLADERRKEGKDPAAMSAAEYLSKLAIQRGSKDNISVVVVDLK
I105R: 1.68%
D3M: 28.1%
L138D: 4.5%
F15H: 11.2%
L20W: 1.59%
N165M: -0.191%
S59Q: 12.5%
Y115R: 1.39%
F5S: 3.99%
T106E: 8.26%
F103W: 0.0469%

Set 5
Target: NFIL3, bZIP domain (human)
Method: DHFR protein complementation
Medium: yeast
Notes: single substitutions, most at no-binding floor
Relative to: wild-type JUN-FOS pair
Reading: higher = stronger binding
Endpoint: binding fitness
Starting sequence: JUN, bZIP domain (human); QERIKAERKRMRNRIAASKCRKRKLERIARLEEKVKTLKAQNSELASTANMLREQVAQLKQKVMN; partner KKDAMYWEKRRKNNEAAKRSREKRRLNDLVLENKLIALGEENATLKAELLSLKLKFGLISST
S43W: -1.49 natural log
V56H: -1.58 natural log
T37D: -1.49 natural log
E44N: -1.47 natural log
Q41F: -1.49 natural log
A29C: -1.42 natural log
L45H: -1.48 natural log
A40Y: -1.4 natural log
A57G: -1.5 natural log
I28T: -1.34 natural log
V56P: -1.51 natural log
M51E: -1.35 natural log
Q41H: -1.59 natural log
E32P: -1.37 natural log
Q41T: -1.49 natural log
L31F: -1.27 natural log
Q55I: -1.22 natural log
E44K: -1.46 natural log
K39S: -1.33 natural log
Q41P: -1.49 natural log
A46M: -1.15 natural log

Set 6
Target: CCND2, cyclin fold, Cln2 fusion (human)
Method: yeast growth competition, sequencing
Medium: yeast
Notes: weak parent motif
Relative to: not given
Reading: higher = stronger binding
Endpoint: normalised enrichment score
Starting sequence: PKN2 docking peptide (human); VSAVQKLDFSDTM; partner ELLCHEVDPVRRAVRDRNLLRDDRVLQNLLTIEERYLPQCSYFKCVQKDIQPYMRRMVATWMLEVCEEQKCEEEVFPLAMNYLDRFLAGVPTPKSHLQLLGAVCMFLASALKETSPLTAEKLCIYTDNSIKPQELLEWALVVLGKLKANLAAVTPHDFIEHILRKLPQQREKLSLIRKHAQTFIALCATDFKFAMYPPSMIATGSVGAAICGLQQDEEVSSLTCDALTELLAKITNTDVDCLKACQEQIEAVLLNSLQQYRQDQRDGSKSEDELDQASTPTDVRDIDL
VNAVQKLDFSDTM [S2N]: 0.356
VSAVQKLDFSDDM [T12D]: 0.677
VSAVQKLDVSDTM [F9V]: -0.0271
VSHVQKLDFSDTM [A3H]: 0.159
VSAVQKLDFSDTP [M13P]: 0.239
VSAVQKLDFADTM [S10A]: 0.386
VSAVQKLDFSDMM [T12M]: 0.318
VSAVQQLDFSDTM [K6Q]: 0.332
VSPVQKLDFSDTM [A3P]: 0.474
VSAVQKLDFSDAM [T12A]: 0.685
VSAVQKLDFSLTM [D11L]: 0.647
VSAVQKLYFSDTM [D8Y]: 0.414
VSAVQKLNFSDTM [D8N]: 0.231
VSAVQKLDFTDTM [S10T]: 0.53
VSAVQKLDFWDTM [S10W]: 0.317
WSAVQKLDFSDTM [V1W]: 0.802
VSAVQKEDFSDTM [L7E]: 0.134
VSAVQKRDFSDTM [L7R]: -0.27
VSAVQKLDFSDKM [T12K]: 0.294
VSAVQKLDFSVTM [D11V]: 0.393
VSAVQLLDFSDTM [K6L]: 0.283
VSAVQKLDFSGTM [D11G]: 0.49
VSAVQKLDFSDLM [T12L]: 0.707
VSAVQKLDFSDTR [M13R]: 0.719
VSAVQKLSFSDTM [D8S]: 0.305

Set 7
Target: Sal-like protein 4, full length isoform B (SALL4, Homo sapiens, UniProt Q9UJQ4-2, residues 1-616)
Method: universal PBM
Molecule type: double-stranded DNA, one strand shown
Medium: in vitro
Tested at: not given
Notes: 8-mer, flanks averaged, mean of replicates
Reading: higher = stronger binding
Endpoint: E-score
Target sequence (chain): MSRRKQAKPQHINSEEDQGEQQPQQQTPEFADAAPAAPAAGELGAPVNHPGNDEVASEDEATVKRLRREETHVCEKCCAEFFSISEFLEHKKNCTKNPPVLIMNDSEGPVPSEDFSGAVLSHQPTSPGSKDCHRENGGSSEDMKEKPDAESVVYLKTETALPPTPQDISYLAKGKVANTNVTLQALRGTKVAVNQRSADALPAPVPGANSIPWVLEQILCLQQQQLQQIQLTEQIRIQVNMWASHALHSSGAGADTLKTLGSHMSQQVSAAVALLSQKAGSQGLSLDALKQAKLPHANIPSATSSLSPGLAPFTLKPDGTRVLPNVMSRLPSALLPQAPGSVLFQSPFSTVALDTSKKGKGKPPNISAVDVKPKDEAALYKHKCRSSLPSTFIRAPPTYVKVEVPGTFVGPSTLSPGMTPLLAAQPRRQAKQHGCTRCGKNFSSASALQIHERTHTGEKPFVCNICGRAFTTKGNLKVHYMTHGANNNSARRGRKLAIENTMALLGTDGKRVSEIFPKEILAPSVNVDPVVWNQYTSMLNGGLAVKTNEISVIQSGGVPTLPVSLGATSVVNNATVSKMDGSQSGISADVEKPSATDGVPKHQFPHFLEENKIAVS
CGCGACCC: -0.272
AGCTAGAG: -0.0774
GTTCGTAA: 0.0736
AAGTAATT: 0.355
GGTACAAA: 0.198
CAGAAAGA: 0.119
CTAAGGAC: -0.0684
ACCCTGGC: -0.315
GGGTTCGA: -0.238
AGAATCTC: -0.0426
AGGACTAC: -0.168
TAAGCTTA: 0.101
AGCTCTCC: -0.158
AGCCCGTA: -0.0574
CCGGTCAG: -0.298
GCACAAAA: 0.168
CCGAAGCA: -0.00519
GATAAAAA: 0.3
GATGCCCC: -0.342
GTCCCCAC: -0.276
GCATAAGC: 0.0859
AATCTTGC: 0.146
GAACTGAC: -0.249
CTGGGACC: -0.283

Repeated from above (set 6):
VSAVQQLDFSDTM [K6Q]: 0.332
VSPVQKLDFSDTM [A3P]: 0.474
VSAVQKLDFSDAM [T12A]: 0.685
VSAVQKLDFSLTM [D11L]: 0.647
VSAVQKLYFSDTM [D8Y]: 0.414
VSAVQKLNFSDTM [D8N]: 0.231
VSAVQKLDFTDTM [S10T]: 0.53
VSAVQKLDFWDTM [S10W]: 0.317
